Measured values pooled from the literature.
Values joined by “and” are separate records of one study, mostly repeats; a detail may differ. ± marks the error that the study gave.

`COc1ccc(C(=O)CCc2cc(C(CCc3ccc(O)cc3OC)c3ccc(O)cc3)c(O)cc2OC)cc1` (racemic) has a TXB2 level of 763 ± 239 pg/mL (human blood; 0.3 µM, together with: A23187).
`COC1CN([C@H]2CC[C@H]([C@@]3(C)Oc4c(Cl)cc(C(=O)NCc5c(SC)cc(C)[nH]c5=O)c(C)c4O3)CC2)C1` — result for “log2 fold change”: 0.141 (RNA-seq, measured: TRIM36 mouse homolog; mouse, HT-1376 xenograft, whole blood; dose not given; relative to: vehicle).
`CCCCCCCCCCCCCCCC(=O)OCC(CSC[C@H](N)C(=O)N[C@@H](CO)C(=O)N[C@@H](CCCCN)C(=O)N[C@@H](CCCCN)C(=O)N[C@@H](CCCCN)C(=O)N[C@@H](CCCCN)C(=O)NCCCCCC(=O)N[C@@H](CCCCN)C(=O)N[C@@H](CC(C)C)C(=O)N[C@H](C(=O)N[C@@H](Cc1ccccc1)C(=O)N[C@@H](Cc1ccccc1)C(=O)N[C@@H](Cc1ccc2ccccc2c1)C(=O)O)C(C)C)OC(=O)CCCCCCCCCCCCCCC` (stereo partly drawn) has an OC-positive area of 3.2% and 6.67% and 6.66% (OC antibody staining, measured: amyloid-beta oligomer; APP/PS1 transgenic mouse, cortex; intracortical injection, dose not given).
The IL-1β inhibition of `CN1CCC[C@]1(C)/C=C/S(=O)(=O)NC(=O)Nc1c2c(cc3c1CCC3)CCC2` is reported as 99.8% (human, whole blood ex vivo; 100 mg twice daily, day 14, 3 h, multiple ascending dose, together with: LPS and ATP).
For `COc1ccccc1-c1ccncc1C(=O)Nc1nnc(OCc2ccc(Cl)cc2)s1`, the colony survival was 17.7% (Brca1 Δ11/Δ11 Polq-/- MEF, Mus musculus; 20 µM; relative to: 0 µM).
Under “bone mineral density”, `CCCCCCCCCCCCCCCC(=O)NCCCC[C@H](NC(=O)[C@H](CCC(=O)O)NC(=O)[C@H](Cc1ccc(O)cc1)NC(=O)[C@H](CCC(=O)O)NC(=O)COCC(=O)NCCCOCCOCCOCCCNC(=O)[C@H](Cc1ccccc1)NC(=O)[C@H](CC(N)=O)NC(=O)[C@H](Cc1c[nH]cn1)NC(=O)[C@@H](NC(=O)[C@H](CC(=O)O)NC(=O)[C@H](CCC(N)=O)NC(=O)[C@H](CC(C)C)NC(=O)[C@H](CCCCN)NC(=O)[C@H](CCCCN)NC(=O)[C@H](CCCNC(=N)N)NC(=O)[C@H](CC(C)C)NC(=O)[C@H](Cc1c[nH]c2ccccc12)NC(=O)[C@H](CCC(=O)O)NC(=O)[C@@H](NC(=O)[C@H](CCCNC(=N)N)NC(=O)[C@H](CCC(=O)O)NC(=O)[C@H](CCSC)NC(=O)[C@H](CO)NC(=O)[C@H](CC(N)=O)NC(=O)[C@H](CC(C)C)NC(=O)[C@H](Cc1c[nH]cn1)NC(=O)[C@H](CCCCN)NC(=O)CNC(=O)[C@H](CC(C)C)NC(=O)[C@H](CC(N)=O)NC(=O)[C@H](Cc1c[nH]cn1)NC(=O)[C@H](CCSC)NC(=O)[C@H](CC(C)C)NC(=O)[C@H](CCC(N)=O)NC(=O)[C@@H](NC(=O)[C@H](CCC(=O)O)NC(=O)[C@H](CO)NC(=O)[C@@H](NC(=O)[C@@H](N)CO)C(C)C)[C@@H](C)CC)C(C)C)C(C)C)C(=O)N[C@@H](CCC(=O)O)C(=O)N[C@@H](Cc1ccc(O)cc1)C(=O)N[C@@H](CCC(=O)O)C(N)=O` is recorded as 422 mgHA/cm3 and 451 mgHA/cm3 (micro-CT; humanized PTH1R mouse, femur; dose not given).
`COC1OC(C)C(OC2OC(C)C(O)C(OC3OC(C)C(OC4OC(C)C(O)C(OC5OC(C)C(OC6OC(C)C(O)C(OC7OC(C)C(O)C(OS(=O)(=O)O)C7OS(=O)(=O)O)C6OS(=O)(=O)O)C(OS(=O)(=O)O)C5OS(=O)(=O)O)C4OS(=O)(=O)O)C(OS(=O)(=O)O)C3OS(=O)(=O)O)C2OS(=O)(=O)O)C(OS(=O)(=O)O)C1OS(=O)(=O)O` (stereo not drawn) — result for “activated partial thromboplastin time”: 54.3 s and 55.9 s and 54.2 s (human plasma; 32 µg/mL).
For `CN(C)Cc1nc(Nc2ccc(-c3cnc4cc(F)ccn34)c3c2C(=O)NC3)ccc1C1CCOC1` (stereo not drawn), the pSLP76 decrease was over 50% (mouse EMT6 tumour model, whole blood; 75 mg/kg, 2 h).
Under “tumour growth inhibition”, `CCCCCc1ccc(S(=O)(=O)N2CC2C(=O)OC)cc1` (stereo not drawn) is recorded as 69% (mouse, Lewis lung carcinoma; intraperitoneal, 5 mg/kg, 16 doses, day 14).
For `COC1OC(C)C(OC2OC(C)C(OS(=O)(=O)O)C(OC3OC(C)C(OC4OC(C)C(OS(=O)(=O)O)C(OC5OC(C)C(OC6OC(C)C(OS(=O)(=O)O)C(OC7OC(C)C(OC8OC(C)C(OS(=O)(=O)O)C(OC9OC(C)C(OC%10OC(C)C(OS(=O)(=O)O)C(OC%11OC(C)C(OS(=O)(=O)O)C(OS(=O)(=O)O)C%11O)C%10O)C(OS(=O)(=O)O)C9O)C8O)C(OS(=O)(=O)O)C7O)C6O)C(OS(=O)(=O)O)C5O)C4O)C(OS(=O)(=O)O)C3O)C2O)C(OS(=O)(=O)O)C1O` (stereo not drawn), “activated partial thromboplastin time” read 44.6 ± 0.3 s (human plasma; 128 µg/mL).
`COc1ccc(NC(=O)c2ccc3[nH]c(-c4ccc(N(C)C)cc4)nc3c2)cn1` gave a tumour volume of 662 mm3 and 766 mm3 and 393 mm3 and 88.8 mm3 and 768 mm3 (CT26, BALB/c mice, subcutaneous syngeneic graft; dose not given, day 14).
For `COCC1CN(C2CCN(c3cc(OC)c(Nc4ncc(Br)c(Nc5ccc6c(c5P(C)(C)=O)OCCO6)n4)cc3C)CC2)C1`, “not evaluable patients” read 33.3% (RECIST 1.1; advanced EGFR-mutant NSCLC patients; 10 mg once daily).
For `COc1cc(N2CCN(C(=O)C3CCCN3)CC2)ccc1Nc1ncc(Cl)c(Nc2ccccc2P(C)(C)=O)n1` (stereo not drawn), the tumour volume was 40.8 mm3 and 44.9 mm3 and 43.3 mm3 and 39 mm3 and 79.2 mm3 (nude mice, NCI-H3122 xenograft; intraperitoneal, 10 mg/kg every other day, day 3).
`COc1cc(O)ccc1CCC(c1ccc(O)cc1)c1cc2c(c(C)c1O)OC(c1ccc(O)cc1)CC2` (mixture of isomers) has an amount of 33000 ± 4720 pg/mL blood (measured: 12-HETE; human whole blood; 3 µM, together with: Escherichia coli).
`C[S@@](=N)(=O)c1ccc(C(=O)Nc2cc(-c3ccc(F)cc3)ccc2N)cc1`: PD-L1 TPS “increased” (patients, STK11-mutant tumours, tumour biopsy; 80 and 120 mg, together with: pembrolizumab; relative to: pretreatment).
`COC1OC(C)C(OC2OC(C)C(OS(=O)(=O)O)C(OC3OC(C)C(OC4OC(C)C(OS(=O)(=O)O)C(OC5OC(C)C(OC6OC(C)C(OS(=O)(=O)O)C(OC7OC(C)C(OS(=O)(=O)O)C(OS(=O)(=O)O)C7OS(=O)(=O)O)C6OS(=O)(=O)O)C(OS(=O)(=O)O)C5OS(=O)(=O)O)C4OS(=O)(=O)O)C(OS(=O)(=O)O)C3OS(=O)(=O)O)C2OS(=O)(=O)O)C(OS(=O)(=O)O)C1OS(=O)(=O)O` (stereo not drawn): “activated partial thromboplastin time” 54.3 s and 54.1 s and 54.4 s (human plasma; 8 µg/mL).
Under “protein level difference”, `COc1cc2c(NC3CCN(C(C)C)CC3)cc(N3CCOCC3)nc2cc1OCCCN1CCCC1` is recorded as -0.0462 (TMT proteomics, measured: MDH1; 5xFAD mice, hippocampus; dose not given, unit not given; relative to: wild type).
Under “activated partial thromboplastin time”, `COC1OC(C)C(OC2OC(C)C(OS(=O)(=O)O)C(OC3OC(C)C(OC4OC(C)C(OS(=O)(=O)O)C(OC5OC(C)C(OS(=O)(=O)O)C(OS(=O)(=O)O)C5OS(=O)(=O)O)C4OS(=O)(=O)O)C(OS(=O)(=O)O)C3OS(=O)(=O)O)C2OS(=O)(=O)O)C(OS(=O)(=O)O)C1OS(=O)(=O)O` (stereo not drawn) is recorded as 59.1 s and 57.7 s and 56.9 s (human plasma; 32 µg/mL).
`CC(C)C[C@H](NC(=O)[C@H](Cc1ccccc1)NC(=O)[C@H](C)NC(=O)[C@@H](CS)NC(=O)CNC(=O)[C@H](N)CO)C(=O)N[C@@H](CO)C(=O)N[C@H](C(=O)N[C@@H](CCCCN)C(=O)N[C@@H](CCCCN)C(=O)N[C@@H](CCC(N)=O)C(=O)N[C@@H](Cc1ccccc1)C(=O)N[C@@H](CCC(=O)O)C(=O)N[C@@H](CCC(=O)O)C(=O)N[C@@H](CC(C)C)C(=O)N[C@H](C(=O)N[C@@H](CC(C)C)C(=O)NCC(=O)N[C@@H](CCC(=O)O)C(=O)N[C@@H](Cc1ccccc1)C(=O)N[C@@H](CC(C)C)C(=O)N[C@H](CCCCN)C(=O)N[C@H](CC(C)C)C(=O)N[C@H](CC(=O)O)C(=O)N[C@@H](CCCNC(=N)N)C(=O)N[C@H](CCCNC(=N)N)C(=O)N[C@@H](CCCNC(=N)N)C(=O)N[C@@H](CCCCN)C(=O)O)[C@@H](C)O)C(C)C`: “caspase-1 and IL-1β expression” “decreased” (measured: caspase-1, IL-1β; mouse A549 xenograft, tumour; intratumoral and intravenous, dose not given).
For `COC1OC(C)C(OS(=O)(=O)O)C(OC2OC(C)C(OS(=O)(=O)O)C(OC3OC(C)C(OS(=O)(=O)O)C(OC4OC(C)C(OS(=O)(=O)O)C(OC5OC(C)C(OS(=O)(=O)O)C(OC6OC(C)C(OS(=O)(=O)O)C(OC7OC(C)C(OS(=O)(=O)O)C(OS(=O)(=O)O)C7O)C6O)C5O)C4O)C3O)C2O)C1O` (stereo not drawn), “activated partial thromboplastin time” read 38.5 ± 0.3 s (human plasma; 128 µg/mL).
For `Nc1nc2cc(CC[C@H]3C[C@@H](n4ccc5c(N)ncnc54)[C@H](O)[C@@H]3O)ccc2cc1Br`, the %ΔTGI was 105% (NCI-H520 xenograft, mouse; 3.0 mg/kg/day, day 27).
`COC1OC(C)C(OS(=O)(=O)O)C(OC2OC(C)C(OS(=O)(=O)O)C(OC3OC(C)C(OS(=O)(=O)O)C(OC4OC(C)C(OS(=O)(=O)O)C(OC5OC(C)C(OS(=O)(=O)O)C(OC6OC(C)C(OS(=O)(=O)O)C(OC7OC(C)C(OS(=O)(=O)O)C(OC8OC(C)C(OS(=O)(=O)O)C(OS(=O)(=O)O)C8OS(=O)(=O)O)C7OS(=O)(=O)O)C6OS(=O)(=O)O)C5OS(=O)(=O)O)C4OS(=O)(=O)O)C3OS(=O)(=O)O)C2OS(=O)(=O)O)C1OS(=O)(=O)O` (stereo not drawn): “activated partial thromboplastin time” 291 s and 324 s and 310 s (human plasma; 64 µg/mL).
`NC[C@@H](C(=O)Nc1ccc(-c2cn[nH]c2)cc1)c1ccccc1` has an IOP of 31.4 mmHg (tonometry; NZW rabbit, magnetic bead-induced ocular hypertension; ocular, 0.03%, 6 h).
`COC1OC(C)C(OC2OC(C)C(O)C(OC3OC(C)C(OC4OC(C)C(O)C(OC5OC(C)C(OC6OC(C)C(O)C(OS(=O)(=O)O)C6OS(=O)(=O)O)C(OS(=O)(=O)O)C5OS(=O)(=O)O)C4OS(=O)(=O)O)C(OS(=O)(=O)O)C3OS(=O)(=O)O)C2OS(=O)(=O)O)C(OS(=O)(=O)O)C1OS(=O)(=O)O` (stereo not drawn): “activated partial thromboplastin time” 46.8 s and 46.5 s and 45.8 s (human plasma; 16 µg/mL).
The inhibition of `Cc1ccc(N(O)/N=N/c2ccc(S(=O)(=O)Nc3nccs3)cc2)cc1` is reported as 99.7% (ABTS scavenging; 180 µg/mL).
`COC1OC(C)C(OS(=O)(=O)O)C(OC2OC(C)C(OS(=O)(=O)O)C(OC3OC(C)C(OS(=O)(=O)O)C(OC4OC(C)C(OS(=O)(=O)O)C(OC5OC(C)C(OS(=O)(=O)O)C(OC6OC(C)C(OS(=O)(=O)O)C(OC7OC(C)C(OS(=O)(=O)O)C(OS(=O)(=O)O)C7OS(=O)(=O)O)C6OS(=O)(=O)O)C5OS(=O)(=O)O)C4OS(=O)(=O)O)C3OS(=O)(=O)O)C2OS(=O)(=O)O)C1OS(=O)(=O)O` (stereo not drawn): “activated partial thromboplastin time” 35 s and 34.3 s and 35.2 s (human plasma; 8 µg/mL).
`CC(=O)[O-].O.O.[O-]c1ccc(Br)cc1C=NCCN1CCOCC1.[Zn+2]` gave an inhibition of 18.3% (DPPH radical scavenging; 80 µM).

Some of these lines once more:
For `COC1OC(C)C(OC2OC(C)C(OS(=O)(=O)O)C(OC3OC(C)C(OC4OC(C)C(OS(=O)(=O)O)C(OC5OC(C)C(OC6OC(C)C(OS(=O)(=O)O)C(OC7OC(C)C(OC8OC(C)C(OS(=O)(=O)O)C(OC9OC(C)C(OC%10OC(C)C(OS(=O)(=O)O)C(OC%11OC(C)C(OS(=O)(=O)O)C(OS(=O)(=O)O)C%11O)C%10O)C(OS(=O)(=O)O)C9O)C8O)C(OS(=O)(=O)O)C7O)C6O)C(OS(=O)(=O)O)C5O)C4O)C(OS(=O)(=O)O)C3O)C2O)C(OS(=O)(=O)O)C1O` (stereo not drawn), “activated partial thromboplastin time” read 44.6 ± 0.3 s (human plasma; 128 µg/mL).
`COC1CN([C@H]2CC[C@H]([C@@]3(C)Oc4c(Cl)cc(C(=O)NCc5c(SC)cc(C)[nH]c5=O)c(C)c4O3)CC2)C1` — result for “log2 fold change”: 0.141 (RNA-seq, measured: TRIM36 mouse homolog; mouse, HT-1376 xenograft, whole blood; dose not given; relative to: vehicle).
The inhibition of `Cc1ccc(N(O)/N=N/c2ccc(S(=O)(=O)Nc3nccs3)cc2)cc1` is reported as 99.7% (ABTS scavenging; 180 µg/mL).
